{"data": "Published values collected from several papers", "cell line": "HepG2", "note": "Each line is one published result; not all experiments were run side by side. ± marks the error that the study gave."}
{"SMILES": "COc1ccc(-n2nc(C(C)=O)s/c2=N\\N=C(/C)c2ccc(NC(=O)c3ccc(Cl)cc3)cc2)cc1", "conditions": "5 µM", "quantity": "viability", "result": "6.13%"}
{"SMILES": "CC(=O)c1sc(=NN=C(C)c2c(O)c3ccccc3oc2=O)n(C)c1C", "test": "cell growth, MTT", "scale": "relative to: IC50 BJ-1 over HepG2", "quantity": "selectivity index", "result": "> 1.75"}
{"SMILES": "CC(=O)c1nn(-c2ccc(Cl)cc2)/c(=N/N=C(\\C)c2ccc(NC(=O)c3ccc(C)cc3)cc2)s1", "conditions": "0.078 µM", "quantity": "toxicity", "result": "20.9%"}
{"SMILES": "CCOc1ccc(N(C)S(=O)(=O)c2ccsc2C(=O)Nc2cccc(C(=O)OC)c2)cc1", "test": "SRE promoter reporter, activator, luciferase reporter", "quantity": "EC50", "result": "> 25 µM"}
{"SMILES": "c1cnc2c(c1)ccc1cccnc12", "conditions": "25 µg/mL", "scale": "relative to: untreated", "quantity": "IL-1β mRNA level", "result": "decreased"}
{"SMILES": "CC(=O)c1nn(-c2ccc(C)cc2)/c(=N/N=C(\\C)c2ccc(NC(=O)c3ccccc3)cc2)s1", "test": "MTT", "conditions": "5 µM", "quantity": "cytotoxicity", "result": "93.2%"}
{"SMILES": "COc1ccc(-n2nc(C(C)=O)s/c2=N\\N=C(/C)c2ccc(NC(=O)c3ccccc3)cc2)cc1", "conditions": "2.5 µM", "quantity": "toxicity", "result": "97.2%"}
{"SMILES": "CCCOc1nc(-c2cccc(O)c2)cc(-c2cc3cc(Cl)ccc3nc2N2CCOCC2)c1C#N", "test": "MTT", "scale": "relative to: WI-38 EC50 over HepG2 IC50", "quantity": "selectivity ratio", "result": 0.726}
{"SMILES": "CC(=NN=C1SC(C)C(=O)N1C)c1c(O)c2ccccc2oc1=O (centres unmarked)", "test": "cell growth, MTT", "scale": "relative to: IC50 BJ-1 over HepG2", "quantity": "selectivity index", "result": "> 1.49"}
{"SMILES": "COc1ccc2c(c1)C(=O)C(=O)N2CCn1ncc2c(=O)[nH]cnc21", "test": "cell growth, SRB", "conditions": "72 h", "quantity": "IC50", "result": "31.9 ± 13.3 µg/mL"}
{"SMILES": "CCOC(=O)c1nn(-c2cccc(Cl)c2)/c(=N/N=C(\\C)c2ccc(NC(=O)c3ccccc3)cc2)s1", "test": "MTT", "conditions": "0.625 µM", "quantity": "cytotoxicity", "result": "96.8%"}
{"SMILES": "CC(=O)c1nn(-c2ccc(Cl)cc2)/c(=N/N=C(\\C)c2ccc(NC(=O)c3ccc(Cl)cc3)cc2)s1", "conditions": "0.625 µM", "quantity": "toxicity", "result": "1.86%"}
{"SMILES": "OC[C@H]1O[C@@H](n2cnc3c(O)nc(O)nc32)[C@H](O)[C@@H]1O", "test": "cell viability, MTT", "conditions": "24 h", "quantity": "IC50", "result": "3560 µM"}
{"SMILES": "CN(CCOc1ccc(CC2SC(=O)NC2=O)cc1)c1ccccn1 (centres unmarked)", "test": "extracellular flux, refers to: reserve respiratory capacity", "conditions": "6 h, distribution mode 1", "quantity": "point of departure", "result": "0.0708 µM"}
{"SMILES": "Nc1n[nH]c2nc(-c3cccc(O)c3)cc(-c3cc4cc(Cl)ccc4nc3N3CCOCC3)c12", "test": "MTT", "scale": "relative to: WI-38 EC50 over HepG2 IC50", "quantity": "selectivity ratio", "result": 1.47}
{"SMILES": "CC(=O)c1nn(-c2ccccc2Cl)/c(=N/N=C(\\C)c2ccc(NC(=O)c3ccccc3)cc2)s1", "test": "MTT", "conditions": "2.5 µM", "quantity": "cytotoxicity", "result": "93.9%"}
{"SMILES": "CCOC(=O)/C=C\\C(=O)OCC", "test": "high content imaging, refers to: nuclei count", "conditions": "24 h, expected PoD", "quantity": "point of departure", "result": "28.6 µM"}
{"SMILES": "COCC(=O)N1CCC[C@H](C(=O)NCc2nc(-c3ccc(-c4ccccc4)cc3)cs2)C1", "test": "cytotoxicity", "quantity": "EC50", "result": "18 µM"}
{"SMILES": "CCOC(=O)N1CCC(CN(Cc2ccc(Cl)cc2)Cc2ccc([N+](=O)[O-])s2)C1 (centres unmarked)", "test": "qPCR, refers to: BMAL1 mRNA", "conditions": "concentration not given", "scale": "relative to: REV-ERBα/β siRNA over control siRNA", "quantity": "decrease of effect", "result": "63%"}
{"SMILES": "CC(=NN=c1scc(C)n1C)c1c(O)c2ccccc2oc1=O", "test": "cell growth, MTT", "scale": "relative to: IC50 BJ-1 over HepG2", "quantity": "selectivity index", "result": "> 2.17"}
{"SMILES": "CC(=O)Nc1ccc(/C(C)=N/N=c2\\sc(C(C)=O)nn2-c2ccc(C)cc2)cc1", "test": "MTT", "conditions": "1.25 µM", "quantity": "cytotoxicity", "result": "0.182%"}
{"SMILES": "COc1ccc(NC(=O)c2c(Nc3ccccc3)sc(C#N)c2NC(=O)CNc2ccc(Cl)cc2)cc1", "test": "ELISA", "conditions": "IC50, 24 h", "quantity": "Bcl-2 level", "result": "408 ± 18.5 pg/mL"}
{"SMILES": "CCOC(=O)c1cccc(NC(=O)c2sc(Cl)cc2S(=O)(=O)N(C)c2ccc(OCC)cc2)c1", "test": "SRE promoter reporter, activator, luciferase reporter", "quantity": "EC50", "result": "4.3 µM"}
{"SMILES": "Cc1nc2ccccc2n(CC(=O)Nc2ccc(C(=O)Nc3cccc(Cl)c3)cc2)c1=O", "test": "Annexin V-FITC/PI staining", "conditions": "2.3 µM", "scale": "relative to: untreated control", "quantity": "early apoptotic cells", "result": "> 4 fold"}
{"SMILES": "O=C(O)Cc1ccccc1Nc1c(Cl)cccc1Cl", "test": "refers to: BiP protein", "conditions": "24 h, distribution mode 2", "quantity": "point of departure", "result": "794 µM"}
{"SMILES": "CCn1cc(-c2cc(Cn3ccnc3)cc3c2CCN([C@H](c2cc(OC)ccn2)C2CC2)C3=O)c(C(F)(F)F)n1", "test": "cell growth, inhibitor", "conditions": "120 h", "quantity": "EC50", "result": "7.52 µM"}
{"SMILES": "O=C1C(=O)N(CCn2ncc3c(=O)[nH]cnc32)c2ccccc21", "test": "cell growth, SRB", "conditions": "72 h", "quantity": "IC50", "result": "46.4 ± 4.67 µg/mL"}
{"SMILES": "N#C[C@@]1(c2ccc3c(N)ncnn23)O[C@H](CO)[C@@H](O)[C@H]1O", "test": "qPCR", "conditions": "1.0 µM, 10 days, 3", "scale": "relative to: untreated", "quantity": "mitochondrial DNA content", "result": "96.1 ± 31.5%"}
{"SMILES": "COc1ccc(NC(=O)c2c(Nc3ccccc3)sc(C(=O)NN=Cc3ccc(OC)c(O)c3)c2NC(C)=O)cc1", "test": "flow cytometry", "conditions": "IC50, 24 h", "quantity": "cells in S phase", "result": "31.1 ± 2.93%"}
{"SMILES": "CCOC(=O)c1cccc(NC(=O)c2sccc2S(=O)(=O)N(C)c2ccc(OCC)cc2)c1", "test": "SRE promoter reporter", "conditions": "concentration not given", "quantity": "activity", "result": "inactive"}
{"SMILES": "CC1=CC(=O)c2ccccc2C1=O", "test": "MTT", "scale": "relative to: IC50 MRC-5 over IC50 HepG2", "quantity": "selectivity index", "result": 2.43}
{"SMILES": "Nc1ccn([C@H]2CC[C@@H](CO)O2)c(=O)n1", "test": "qPCR", "conditions": "2.0 µM, 10 days, 3", "scale": "relative to: untreated", "quantity": "mitochondrial DNA content", "result": "25.1 ± 7.8%"}
{"SMILES": "CC(=NN=c1scc(-c2ccccc2)n1C)c1c(O)c2ccccc2oc1=O", "test": "cell growth, MTT", "scale": "relative to: IC50 BJ-1 over HepG2", "quantity": "selectivity index", "result": "> 1.51"}
{"SMILES": "CCOC(=O)c1nn(-c2cccc(Cl)c2)/c(=N/N=C(\\C)c2ccc(NC(=O)c3ccc(Cl)cc3)cc2)s1", "test": "MTT", "conditions": "1.25 µM", "quantity": "cytotoxicity", "result": "97.4%"}
{"SMILES": "CC(C)(C)c1cc(O)ccc1O", "test": "extracellular flux, refers to: oxygen consumption rate", "conditions": "24 h, distribution mode 1", "quantity": "point of departure", "result": "0.0219 µM"}
{"SMILES": "CCOC(=O)c1sc(=NN=C(C)c2c(O)c3ccccc3oc2=O)n(CC)c1C", "test": "cell growth, MTT", "scale": "relative to: IC50 BJ-1 over HepG2", "quantity": "selectivity index", "result": "> 2.22"}
{"SMILES": "CCc1ccc(CCOc2ccc(CC3SC(=O)NC3=O)cc2)nc1 (centres unmarked)", "test": "CellTiter-Glo, refers to: cellular ATP", "conditions": "24 h, representative mode", "quantity": "point of departure", "result": "4.47 µM"}
{"SMILES": "CCn1c(C)c(N=Nc2ccccc2)sc1=NN=C(C)c1c(O)c2ccccc2oc1=O", "test": "cell growth, MTT", "scale": "relative to: IC50 BJ-1 over HepG2", "quantity": "selectivity index", "result": "> 1.64"}
{"note": "A few entries again:"}
{"SMILES": "COc1ccc(NC(=O)c2c(Nc3ccccc3)sc(C(=O)NN=Cc3ccc(OC)c(O)c3)c2NC(C)=O)cc1", "test": "flow cytometry", "conditions": "IC50, 24 h", "quantity": "cells in S phase", "result": "31.1 ± 2.93%"}
{"SMILES": "CCOC(=O)c1cccc(NC(=O)c2sccc2S(=O)(=O)N(C)c2ccc(OCC)cc2)c1", "test": "SRE promoter reporter", "conditions": "concentration not given", "quantity": "activity", "result": "inactive"}
{"SMILES": "CC1=CC(=O)c2ccccc2C1=O", "test": "MTT", "scale": "relative to: IC50 MRC-5 over IC50 HepG2", "quantity": "selectivity index", "result": 2.43}
{"SMILES": "Nc1ccn([C@H]2CC[C@@H](CO)O2)c(=O)n1", "test": "qPCR", "conditions": "2.0 µM, 10 days, 3", "scale": "relative to: untreated", "quantity": "mitochondrial DNA content", "result": "25.1 ± 7.8%"}
{"SMILES": "CC(=NN=c1scc(-c2ccccc2)n1C)c1c(O)c2ccccc2oc1=O", "test": "cell growth, MTT", "scale": "relative to: IC50 BJ-1 over HepG2", "quantity": "selectivity index", "result": "> 1.51"}
{"SMILES": "CCOC(=O)c1nn(-c2cccc(Cl)c2)/c(=N/N=C(\\C)c2ccc(NC(=O)c3ccc(Cl)cc3)cc2)s1", "test": "MTT", "conditions": "1.25 µM", "quantity": "cytotoxicity", "result": "97.4%"}
